Earlier results as cited in several papers.
Protocols differ between the studies behind these lines. Values joined by “and” are separate records of one study, mostly repeats; a detail may differ. ≈ marks a conversion by molar mass, not a printed value.
Sequence of UniProt Q9Y2H1 (whole entry, looked up): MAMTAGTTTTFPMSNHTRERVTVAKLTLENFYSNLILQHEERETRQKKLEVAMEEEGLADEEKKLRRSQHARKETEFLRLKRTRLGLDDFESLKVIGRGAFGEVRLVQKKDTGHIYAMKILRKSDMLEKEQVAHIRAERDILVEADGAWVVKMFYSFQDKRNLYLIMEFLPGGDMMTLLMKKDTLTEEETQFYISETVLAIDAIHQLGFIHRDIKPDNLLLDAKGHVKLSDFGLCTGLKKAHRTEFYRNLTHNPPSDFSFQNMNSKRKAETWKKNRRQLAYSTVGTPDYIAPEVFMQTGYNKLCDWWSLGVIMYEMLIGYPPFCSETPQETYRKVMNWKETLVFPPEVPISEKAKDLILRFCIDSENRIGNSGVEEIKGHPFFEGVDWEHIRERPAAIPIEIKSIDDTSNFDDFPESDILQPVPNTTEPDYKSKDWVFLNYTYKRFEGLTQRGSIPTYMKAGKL

`CCc1cc(/C(C)=N/OCc2ccc(C3CCCCC3)c(C(F)(F)F)c2)ccc1CN1CC(C(=O)O)C1` gave a clearance of 3.16 L/h (population PK; human, CYP2C9*1/*2).
`CCc1cc(C(N)=S)ccn1` has a solubility of less than 1000 µg/mL (water).
Under “ventricular tachycardia incidence”, `CCCCCCCN(CC)CCCC(O)c1ccc(NS(C)(=O)=O)cc1` (stereo not drawn) is recorded as 3.6% (AF patients; dose not given; baseline: patients).
`CNC(=O)c1ccc(N2C(=S)N(c3ccc(C#N)c(C(F)(F)F)c3)C(=O)C2(C)C)cc1F`: talazoparib exposure “increased” (intestinal P-gp transport, inhibitor; human; concentration not given).
`CNC(=O)c1c(C)oc2cc(Oc3ncnc4cc(OC)c(OC)cc34)ccc12` has an elimination half-life of roughly 42 h (human).
`CCC(C)C1OC2(CCC1C)CC1CC(C/C=C(\C)C(OC3CC(OC)C(OC4CC(OC)C(O)C(C)O4)C(C)O3)C(C)/C=C/C=C3\COC4C(O)C(C)=CC(C(=O)O1)C34O)O2` (stereo not drawn) has a solubility of less than 1000 µg/mL (water).
`CCCCc1oc2ccccc2c1C(=O)c1cc(I)c(OCCN(CC)CC)c(I)c1` gave a diarrhoea incidence of less than 2% (human; concentration not given, clinical).
With `CNC(C)C1CCC(N)C(OC2C(N)CC(N)C(OC3OCC(C)(O)C(NC)C3O)C2O)O1` (stereo not drawn) the MIC was greater than 8 µg/mL (Pseudomonas aeruginosa; clinical isolate RKI-No_470/12).
For `CNC(=O)c1ccc(N2C(=S)N(c3ccc(C#N)c(C(F)(F)F)c3)C(=O)C2(C)C)cc1F`, “adverse event incidence” read 21% (measured: diarrhea; post-docetaxel patients; dose not given, AFFIRM trial).
Under “increase in AUC”, `Cc1nc(NC(=O)N2CCC[C@H]2C(N)=O)sc1-c1ccnc(C(C)(C)C(F)(F)F)c1` is recorded as 73% (human; oral, 300 mg single dose, with: high-fat high-calorie meal; baseline: fasted).
`COCCc1ccc(OCC(O)CNC(C)C)cc1` (stereo not drawn) has an aqueous solubility of greater than 10000 µg/mL.
`CCN(CC)C(=S)SSC(=S)N(CC)CC` has a solubility of less than 1000 µg/mL (water).
For `CNC(=O)c1c(C)oc2cc(Oc3ncnc4cc(OC)c(OC)cc34)ccc12`, exposure change read “no effect” (healthy human subjects; dose not given, with: rabeprazole).
`C[C@H](CS)C(=O)N1CCC[C@H]1C(=O)O` gave a free Cmax of 1460 nM (human).
Under “terminal elimination half-life”, `Cc1cccc(C)c1OCC(=O)N[C@@H](Cc1ccccc1)[C@@H](O)C[C@H](Cc1ccccc1)NC(=O)[C@H](C(C)C)N1CCCNC1=O` is recorded as 2.33 to 2.44 h (depends on dosing frequency).
The Cmax of `CC(=O)N1CCN(c2ccc(OCC3COC(Cn4ccnc4)(c4ccc(Cl)cc4Cl)O3)cc2)CC1` (stereo not drawn) is reported as 3200 nM (plasma; concentration not given, total, steady state).
`CC(=O)c1c(C)c2cnc(Nc3ccc(N4CCNCC4)cn3)nc2n(C2CCCC2)c1=O` has an AUC(0-24 h) of 521 ng·h/mL (beagle dog male; 0.6 mg/kg).
For `N[C@@H](Cc1ccc(O)c(O)c1)C(=O)O`, the free Cmax was 49.9 nM (plasma).
The elimination half-life of `Cc1nn(C)cc1S(=O)(=O)NC(=O)c1ccc(-n2ccc(OCC(C)(C)C(F)(F)F)n2)nc1N1C[C@@H](C)CC1(C)C` is reported as 27.4 h (non-pregnant cystic fibrosis patients).
`COc1ccc(CCc2ccc(-c3c(C)[nH]c(C)c(Cl)c3=O)cc2)cc1` gave an IC50 of 0.02 µM (Plasmodium falciparum; whole cell extended time; 3D7; 72 h).
The AUC(0-inf) of `CNCc1cc(-c2ccccc2F)n(S(=O)(=O)c2cccnc2)c1` is reported as 186 ng·h/mL (human; 20 mg, multiple dose).
With `c1ccc2c(c1)ccc1ccccc12` the Km was 0.51 µM (metabolism, substrate; human liver microsomes).
For `C[Si](C)(C)O[Si](C)(C)O[Si](C)(C)C`, the log KAW was 3.16 (vapour pressure over solubility; 25 °C).
With `C[C@@H](Oc1cc(-c2cnn(C3CCNCC3)c2)cnc1N)c1c(Cl)ccc(F)c1Cl` the crossover pressure was 145 to 165 bar (supercritical CO2).
For `Cn1c(Cn2ccc(C(F)(F)F)c(Oc3cc(Cl)cc(C#N)c3)c2=O)n[nH]c1=O`, “upper respiratory tract infection incidence” read 9.4% (human; up to 48 weeks, trial; baseline: subjects).
The solubility of `CS(=O)(=O)c1ccc(C(=O)Nc2ccc(Cl)c(-c3ccccn3)c2)c(Cl)c1` is reported as 3 µg/mL (≈ 7.12 µM) (FaSSIF; literature value).
Under “HNO release half-life”, `CC(C)N[N+]([O-])=N[O-].[Na+]` is recorded as 2.3 min (pH 7.4, 37 °C).
`Nc1cc(C(F)(F)F)c(-c2nc(N3CCOCC3)nc(N3CCOCC3)n2)cn1` has a remaining activity of 93% (STK38L (Homo sapiens, UniProt Q9Y2H1); enzyme activity; 10 µM; baseline: untreated).
With `COc1cc2c(Oc3ccc4[nH]c(C)cc4c3F)ccnc2cc1OCC1(N)CC1` the AUC(0-120 h) was 617 ng/mL∗h (adult human; 12 mg single dose).
For `CC1(C)C[C@@H]1C(=O)N/C(=C\CCCCSC[C@H](N)C(=O)O)C(=O)O`, the t_half was 0.8 h (human).
For `C[C@@H]1O[C@@H](OC[C@H]2O[C@@H](Oc3c(-c4ccc(O)c(O)c4)oc4cc(O)cc(O)c4c3=O)[C@H](O)[C@@H](O)[C@@H]2O)[C@H](O)[C@H](O)[C@H]1O`, the solubility was less than 1000 µg/mL (water).
For `Cc1ccc(NC(=O)c2ccc(CN3CCN(C)CC3)cc2)cc1Nc1nccc(-c2cncc(-c3oncc3C)c2)n1`, the half-life was 2.6 h (mouse; 100 mg/kg/day, steady state).
Under “HSA binding, literature value”, `O=C(O)c1ccccc1` is recorded as 34.3% (human serum albumin; concentration not given).
The GI50 of `C[C@H]1COCCN1c1nc(-c2cnc(N)cc2C(F)F)nc(N2CCOCC2)n1` is reported as 0.442 µM (SJCRH30).
`N#C[C@@]1(c2ccc3c(N)ncnn23)O[C@H](CO)[C@@H](O)[C@H]1O` gave a half-life of 5.76 h (dog; oral, 5 mg/kg, solution, unadjusted NCATS data).
With `CC1(C)S[C@@H]2[C@H](NC(=O)[C@H](N)c3ccccc3)C(=O)N2[C@H]1C(=O)O` the MIC was greater than 16 µg/mL (Pseudomonas aeruginosa; clinical isolate RKI-No_470/12).
For `N=C(N)c1ncn([C@@H]2O[C@H](CO)[C@@H](O)[C@H]2O)n1`, the oral bioavailability was 66% (human).
For `C#Cc1cccc(Nc2ncnc3cc(OCCOC)c(OCCOC)cc23)c1`, the exposure ratio was 0.3 fold (human, healthy volunteers; with: rifampicin; baseline: with over without rifampicin).
`Cc1cc2c(s1)Nc1ccccc1N=C2N1CCN(C)CC1` has a free Cmax of 2.89 nM (human).
`CCN1CCN(Cc2ccc(Nc3ncc(F)c(-c4cc(F)c5nc(C)n(C(C)C)c5c4)n3)nc2)CC1`: “plasma protein binding” 96 to 98% (human plasma; 152 to 5066 ng/mL).
`C=CC(=O)NC1CCN(c2ncc3ncnc(Nc4ccc(Oc5ccc6c(c5)ncn6C)c(C)c4)c3n2)CC1` gave a diarrhoea incidence of 56% (patients, NSCLC, HER2-mutant, previously treated; 120 mg once daily, treatment-related any grade).
For `Nc1ccn([C@@H]2O[C@H](CO)[C@@H](O)C2(F)F)c(=O)n1`, “volume of distribution” read 50 L/m² (human; intravenous infusion, dose not given, infusion under 70 min).
`Cc1nc2c([nH]1)-c1ccccc1N(C(=O)c1ccc(NC(=O)c3ccccc3-c3ccccc3)cc1)CC2.Cl` has a solubility of less than 1000 µg/mL (water).
`CN(C)C(=O)c1cc2cnc(Nc3ccc(N4CCNCC4)cn3)nc2n1C1CCCC1` — result for “adverse event incidence”: 20.9% (measured: dyspnea; advanced solid tumour or lymphoma patients; dose not given, 3 weeks on 1 week off, any grade; baseline: patients).
For `N#Cc1ccc(C(c2ccc(C#N)cc2)n2cncn2)cc1`, the crossover pressure was 160 to 180 bar (supercritical CO2).
`Nc1nc(=O)n([C@@H]2C=C[C@H](CO)O2)cc1F` has an oral bioavailability of 32% (human; 20 mg).
`Cc1cc(-c2nccc3c2ccn3CC(=O)Nc2ccc(-c3cnccn3)cn2)ccn1` — result for “AUC(0-24 h), total”: 9.9 µM·h (dog; 30 mg/kg/day, 1 month, repeat dosing).
With `CC(C)Cc1ccc(C(C)C(=O)O)cc1` (stereo not drawn) the free Cmax was 2960 nM (human).
For `CC(C)[C@@H](CS(=O)(=O)C(C)C)N1C(=O)[C@@](C)(CC(=O)O)C[C@H](c2cccc(Cl)c2)[C@H]1c1ccc(Cl)cc1`, “total intratumoral concentration” read greater than 25 nmol/L (glioblastoma patients; 240 mg).
`N#CCNC(=O)c1ccc(-c2ccnc(Nc3ccc(N4CCOCC4)cc3)n2)cc1` has an excreted dose of 12.6% (measured: compound; human, feces; oral, dose not given, single dose 14C-labelled; baseline: dose).
`COc1ccc2nc3cc(Cl)ccc3c(Nc3ccc(C(=O)O)cc3)c2c1` has an IC50 of 0.3 µM (Plasmodium falciparum; whole cell extended time; 3D7; 72 h).
The Cmax of `Oc1cc(O)c2c(c1)O[C@H](c1cc(O)c(O)c(O)c1)[C@H](O)C2` is reported as 730 nM (plasma; concentration not given, total, steady state).
`Nc1nc(NC2CC2)c2ncn([C@H]3C=C[C@@H](CO)C3)c2n1` gave an oral bioavailability of 83% (human).
Under “amount in tissue”, `c1ccc2ccccc2c1` is recorded as 0.224 ng/well and 0.211 ng/well and 0.23 ng/well (zebrafish embryos, whole embryo; 148.7 ng/well, 48 hpf, single exposure).
